Measured values pooled from the literature.
Parts stem from different laboratories: compare values within a part only. Changes are numbered by the printed parent chain.

Block 1 — target: CCND2, cyclin fold, Cln2 fusion (human); method: yeast growth competition, sequencing; matrix: yeast; notes: weak parent motif; reference: not given; reading: higher = stronger binding; endpoint: normalised enrichment score
Starting sequence: MASTL docking peptide (human); PMIAKNLMCELDE
I3A: 0.0383
E10H: -0.0382
D12S: 0.195
M8E: 0.204
D12P: -0.114
A4Q: -0.191
K5A: -0.0269
I3S: -0.2
C9P: 0.432
D12R: 0.0912
N6F: -0.0967

Block 2 — method: protein binding microarray; form: double-stranded DNA, one strand shown; matrix: in vitro; concentration: not given; reference: not given; reading: higher = stronger binding; endpoint: E-score
Target: Histone acetyltransferase KAT6A, winged helix 1, GST fusion (KAT6A, Homo sapiens, UniProt Q92794, residues 1-85)
Notes: 8-mer, flanks averaged, mean of 2 arrays, mostly near background
Construct (chain): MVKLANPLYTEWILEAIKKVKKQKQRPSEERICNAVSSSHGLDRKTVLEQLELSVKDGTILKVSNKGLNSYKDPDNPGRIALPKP
CTGAAGCA: -0.165
CTATTGCA: -0.144
AGAGTAAG: -0.0634
ACTATGAT: -0.094
CAATCTAG: -0.126
CTTCTCCA: -0.168
CTGATCTC: -0.112
CGGGACGC: 0.39
AGGGACCT: -0.0622
CTGGACAA: -0.208

Block 3 — method: DHFR PCA, deep sequencing; matrix: yeast; added: (+)-ABA 1.4 µM; reference: wild-type fitted maximum; reading: higher = stronger binding; endpoint: relative binding score
Target: ABI1, truncated, D143A, DHFR fusion (Arabidopsis thaliana)
Notes: methotrexate growth selection, single substitutions
Starting sequence: PYL1, truncated, DHFR fusion (Arabidopsis thaliana); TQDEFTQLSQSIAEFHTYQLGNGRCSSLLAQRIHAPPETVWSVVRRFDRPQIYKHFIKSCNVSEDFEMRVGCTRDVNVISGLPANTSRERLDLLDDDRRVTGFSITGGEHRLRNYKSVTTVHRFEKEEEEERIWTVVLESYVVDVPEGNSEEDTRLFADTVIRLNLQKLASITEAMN
Q7D: 60.3%
F124G: 30%
A175S: 51.1%
V143M: 3.91%
R111P: 11.6%
D96F: -2.9%
V43P: -9.97%
E151K: 48.1%
I52Q: 42%

Further values, each from its own experiment
PhoQ, residues 284 288 289 292 302 303 GASLAW — fold induction (PhoP, residues 12 14 15 18 19 SMASL (Escherichia coli, UniProt P23836); Sort-seq, item: YFP reporter; E. coli; PhoQ-PhoP variant library, added: 10 µM Mg2+; reference: high Mg2+ state, higher = stronger signaling): 1.02
